Measurements of several laboratories.
Compare with care: the assays were run in different laboratories. Values joined by “and” are separate records of one study, mostly repeats; a detail may differ. ± marks the error that the study gave.
VIPR2: Vasoactive intestinal polypeptide receptor 2 (VIPR2, Homo sapiens, UniProt P41587)
Sequence of UniProt P55211 (whole entry, looked up): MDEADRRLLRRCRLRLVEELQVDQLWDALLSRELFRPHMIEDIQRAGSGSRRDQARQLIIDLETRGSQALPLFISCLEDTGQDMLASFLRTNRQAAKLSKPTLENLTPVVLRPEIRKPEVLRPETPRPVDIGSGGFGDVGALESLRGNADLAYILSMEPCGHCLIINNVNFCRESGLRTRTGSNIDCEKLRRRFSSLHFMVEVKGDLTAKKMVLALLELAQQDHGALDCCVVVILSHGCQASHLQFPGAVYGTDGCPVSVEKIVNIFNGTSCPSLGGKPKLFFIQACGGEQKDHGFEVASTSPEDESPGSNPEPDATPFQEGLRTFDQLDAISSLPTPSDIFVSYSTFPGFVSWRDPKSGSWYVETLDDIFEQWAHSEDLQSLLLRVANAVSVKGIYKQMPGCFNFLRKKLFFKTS
Sequence of UniProt P41587 (whole entry, looked up): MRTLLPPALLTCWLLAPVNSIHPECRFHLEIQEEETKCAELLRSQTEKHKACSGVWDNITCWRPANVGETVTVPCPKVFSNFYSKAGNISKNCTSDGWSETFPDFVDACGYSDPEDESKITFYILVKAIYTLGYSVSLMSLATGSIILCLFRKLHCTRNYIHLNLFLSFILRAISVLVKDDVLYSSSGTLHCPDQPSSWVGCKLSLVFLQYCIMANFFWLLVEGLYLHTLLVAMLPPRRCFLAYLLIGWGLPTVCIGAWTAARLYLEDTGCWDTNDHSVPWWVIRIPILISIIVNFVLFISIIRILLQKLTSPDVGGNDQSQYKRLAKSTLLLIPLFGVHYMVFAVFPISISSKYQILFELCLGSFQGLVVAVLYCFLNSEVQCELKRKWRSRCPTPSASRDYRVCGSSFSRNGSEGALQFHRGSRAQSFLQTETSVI
Sequence of UniProt P33533 (whole entry, looked up): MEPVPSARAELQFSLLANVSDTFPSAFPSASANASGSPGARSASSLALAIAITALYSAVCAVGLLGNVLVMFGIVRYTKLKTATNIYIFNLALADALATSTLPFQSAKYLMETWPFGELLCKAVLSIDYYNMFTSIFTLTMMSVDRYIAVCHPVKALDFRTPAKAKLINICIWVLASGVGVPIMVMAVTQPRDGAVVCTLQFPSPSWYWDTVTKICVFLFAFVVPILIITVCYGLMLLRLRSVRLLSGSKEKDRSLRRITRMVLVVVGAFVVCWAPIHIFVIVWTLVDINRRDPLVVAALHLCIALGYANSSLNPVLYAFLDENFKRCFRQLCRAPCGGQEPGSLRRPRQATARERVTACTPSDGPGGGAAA
Sequence of UniProt P55786 (whole entry, looked up): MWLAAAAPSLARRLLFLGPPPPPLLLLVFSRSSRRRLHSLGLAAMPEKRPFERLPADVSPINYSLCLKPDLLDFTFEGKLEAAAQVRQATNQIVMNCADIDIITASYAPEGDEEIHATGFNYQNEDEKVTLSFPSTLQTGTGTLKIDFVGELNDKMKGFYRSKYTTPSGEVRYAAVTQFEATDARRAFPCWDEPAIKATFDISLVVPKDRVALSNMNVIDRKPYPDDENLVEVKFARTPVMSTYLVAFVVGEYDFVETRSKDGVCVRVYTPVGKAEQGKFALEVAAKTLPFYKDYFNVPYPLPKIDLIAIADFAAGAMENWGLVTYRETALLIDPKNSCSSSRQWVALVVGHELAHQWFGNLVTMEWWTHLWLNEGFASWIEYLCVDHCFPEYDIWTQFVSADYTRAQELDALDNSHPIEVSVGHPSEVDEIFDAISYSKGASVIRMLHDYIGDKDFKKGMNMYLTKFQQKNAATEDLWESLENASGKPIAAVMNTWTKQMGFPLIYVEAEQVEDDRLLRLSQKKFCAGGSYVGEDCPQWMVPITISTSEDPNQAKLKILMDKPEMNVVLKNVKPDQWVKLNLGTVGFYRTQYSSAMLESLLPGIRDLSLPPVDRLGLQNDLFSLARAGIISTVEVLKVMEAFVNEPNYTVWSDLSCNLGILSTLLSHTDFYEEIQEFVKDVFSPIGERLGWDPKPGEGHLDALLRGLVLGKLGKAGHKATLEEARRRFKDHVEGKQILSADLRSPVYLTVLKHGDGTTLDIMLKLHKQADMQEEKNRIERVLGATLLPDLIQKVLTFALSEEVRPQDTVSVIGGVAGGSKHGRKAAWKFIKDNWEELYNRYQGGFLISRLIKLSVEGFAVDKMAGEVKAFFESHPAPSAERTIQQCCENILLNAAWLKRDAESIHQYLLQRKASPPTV
Sequence of UniProt P21554 (whole entry, unmodified, looked up): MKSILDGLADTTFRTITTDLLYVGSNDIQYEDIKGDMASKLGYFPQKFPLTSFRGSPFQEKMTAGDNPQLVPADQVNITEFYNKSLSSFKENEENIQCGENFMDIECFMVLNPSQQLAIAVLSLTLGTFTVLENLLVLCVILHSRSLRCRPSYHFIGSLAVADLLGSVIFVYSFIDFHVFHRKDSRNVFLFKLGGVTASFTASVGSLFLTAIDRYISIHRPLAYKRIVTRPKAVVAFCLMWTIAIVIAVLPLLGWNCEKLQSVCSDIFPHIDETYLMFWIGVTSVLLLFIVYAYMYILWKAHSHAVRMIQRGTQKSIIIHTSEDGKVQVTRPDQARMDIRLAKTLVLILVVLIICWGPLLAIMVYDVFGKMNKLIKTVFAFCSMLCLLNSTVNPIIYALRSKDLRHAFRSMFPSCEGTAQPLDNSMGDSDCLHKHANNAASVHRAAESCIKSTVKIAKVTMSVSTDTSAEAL
Sequence of UniProt O43613 (whole entry, looked up): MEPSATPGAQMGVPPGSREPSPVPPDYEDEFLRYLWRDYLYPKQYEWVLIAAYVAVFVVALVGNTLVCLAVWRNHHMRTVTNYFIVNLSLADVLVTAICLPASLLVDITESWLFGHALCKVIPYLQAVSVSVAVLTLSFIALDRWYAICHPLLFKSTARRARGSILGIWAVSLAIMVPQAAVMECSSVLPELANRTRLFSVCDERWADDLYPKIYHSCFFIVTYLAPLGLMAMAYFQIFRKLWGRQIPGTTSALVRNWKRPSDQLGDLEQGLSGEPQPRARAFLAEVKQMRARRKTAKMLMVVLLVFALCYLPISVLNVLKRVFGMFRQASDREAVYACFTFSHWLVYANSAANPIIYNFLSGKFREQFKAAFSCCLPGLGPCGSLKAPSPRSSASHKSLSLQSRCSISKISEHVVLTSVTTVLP
Sequence of UniProt P41586 (whole entry, unmodified, looked up): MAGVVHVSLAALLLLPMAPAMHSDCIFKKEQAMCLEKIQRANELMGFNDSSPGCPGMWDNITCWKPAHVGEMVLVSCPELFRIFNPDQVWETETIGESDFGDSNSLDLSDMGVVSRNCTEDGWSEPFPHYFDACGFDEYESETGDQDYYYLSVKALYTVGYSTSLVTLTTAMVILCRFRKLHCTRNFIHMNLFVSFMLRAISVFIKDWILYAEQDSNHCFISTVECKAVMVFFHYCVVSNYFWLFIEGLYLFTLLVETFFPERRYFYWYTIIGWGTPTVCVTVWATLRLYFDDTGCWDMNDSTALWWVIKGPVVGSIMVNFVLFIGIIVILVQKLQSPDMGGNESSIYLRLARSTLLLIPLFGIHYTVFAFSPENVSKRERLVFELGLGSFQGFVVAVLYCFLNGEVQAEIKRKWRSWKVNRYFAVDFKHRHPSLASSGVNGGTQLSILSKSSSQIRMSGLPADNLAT
Sequence of UniProt P31645 (whole entry, looked up): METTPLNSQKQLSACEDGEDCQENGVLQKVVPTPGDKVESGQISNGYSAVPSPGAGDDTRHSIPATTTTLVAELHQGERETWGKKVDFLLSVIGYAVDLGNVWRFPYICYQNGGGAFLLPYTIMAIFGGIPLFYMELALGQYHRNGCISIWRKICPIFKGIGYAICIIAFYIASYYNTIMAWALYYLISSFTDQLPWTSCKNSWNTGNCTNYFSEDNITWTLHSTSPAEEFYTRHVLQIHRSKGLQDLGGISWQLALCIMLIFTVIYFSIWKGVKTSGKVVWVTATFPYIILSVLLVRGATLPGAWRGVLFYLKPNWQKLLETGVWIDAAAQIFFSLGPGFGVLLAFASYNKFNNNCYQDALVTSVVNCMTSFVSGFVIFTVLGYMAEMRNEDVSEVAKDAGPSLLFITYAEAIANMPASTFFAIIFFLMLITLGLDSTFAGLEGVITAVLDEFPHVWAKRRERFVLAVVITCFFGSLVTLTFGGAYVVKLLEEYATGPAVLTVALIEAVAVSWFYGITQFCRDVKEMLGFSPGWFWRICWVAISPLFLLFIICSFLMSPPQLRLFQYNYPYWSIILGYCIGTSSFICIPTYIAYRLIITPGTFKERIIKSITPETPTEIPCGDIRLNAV

SMILES = CSCC[C@H](NC(=O)[C@H](CCC(N)=O)NC(=O)[C@H](CCCCN)NC(=O)[C@H](CCCNC(=N)N)NC(=O)[C@H](Cc1ccc(O)cc1)NC(=O)[C@H](CCCNC(=N)N)NC(=O)[C@H](CO)NC(=O)[C@H](Cc1ccc(O)cc1)NC(=O)[C@H](CO)NC(=O)[C@H](CC(=O)O)NC(=O)[C@@H](NC(=O)[C@@H](N)Cc1ccccc1)[C@@H](C)O)C(=O)N[C@@H](C)C(=O)N[C@H](C(=O)N[C@@H](CCCCN)C(=O)N[C@@H](CCCCN)C(=O)N[C@@H](Cc1ccc(O)cc1)C(=O)N[C@@H](CC(C)C)C(=O)N[C@@H](C)C(=O)N[C@@H](C)C(=O)N[C@H](C(=O)N[C@@H](CC(C)C)C(=O)NCC(=O)N[C@@H](CCCCN)C(=O)N[C@@H](CCCNC(=N)N)C(=O)N[C@@H](Cc1ccc(O)cc1)C(=O)N[C@@H](CCCCN)C(=O)N[C@@H](CCC(N)=O)C(=O)N[C@@H](CCCNC(=N)N)C(=O)N[C@H](C(=O)N[C@@H](CCCCN)C(=O)N[C@@H](CC(N)=O)C(=O)N[C@@H](CCCCn1cc(C[C@H](NC(=O)CNC(=O)[C@H](CO)NC(=O)[C@H](CCCNC(=N)N)NC(=O)[C@H](CO)NC(=O)[C@H](CC(C)C)NC(=O)[C@H](CC(C)C)NC(=O)CNC(=O)[C@H](C)NC(=O)[C@H](CC(C)C)NC(=O)[C@H](CCCNC(=N)N)NC(=O)[C@H](Cc2c[nH]cn2)NC(=O)[C@@H](NC(=O)[C@@H](N)C(C)C)[C@@H](C)O)C(=O)N[C@H](C(=O)N[C@H](C(=O)N[C@@H](CCCCN)C(=O)N[C@@H](CC(N)=O)C(=O)N[C@@H](CC(N)=O)C(=O)N[C@@H](Cc2ccccc2)C(=O)N[C@H](C(=O)N2CCC[C@H]2C(=O)N[C@H](C(=O)N[C@@H](CC(N)=O)C(=O)N[C@H](C(=O)NCC(=O)N[C@@H](CO)C(=O)N[C@@H](CCCCN)C(=O)N[C@@H](C)C(=O)N[C@@H](Cc2ccccc2)C(N)=O)C(C)C)[C@@H](C)O)C(C)C)C(C)C)C(C)C)nn1)C(N)=O)C(C)C)C(C)C)C(C)C; tested on = VIPR2; assay = cAMP accumulation, antagonist; conditions = with: PACAP-27; endpoint = Kb; result = 174 nM
SMILES = CN(C)c1ncnc2c1ncn2[C@@H]1O[C@H](CCl)[C@@H](NC(=O)[C@H](CSC23CC4CC(CC(C4)C2)C3)NC(=O)OC(C)(C)C)[C@H]1O; tested on = Puromycin-sensitive aminopeptidase (Homo sapiens, UniProt P55786); assay = enzyme activity, inhibitor, fluorescence; endpoint = IC50; result = 2300 nM
SMILES = Cc1ccc2c(C(C[N+](=O)[O-])c3cccs3)c(-c3ccccc3)[nH]c2c1 (centres unmarked); tested on = CNR1 (Homo sapiens, UniProt P21554, Y397A); assay = β-arrestin recruitment, agonist, luciferase; endpoint = EC50; result = 580 nM
SMILES = C[C@@H](Cc1ccsc1)NC(=O)NC[C@H](Cc1ccc(O)cc1)N(C)C; tested on = HCRTR1 (Homo sapiens, UniProt O43613); endpoint = Ki; result = > 50000 nM
SMILES = COc1ccc(CN2CCN(Cc3ccccc3)CC2)c(O)c1; tested on = Plasmodium falciparum; assay = parasite growth, parasite lactate dehydrogenase; test system = NF54; endpoint = IC50; result = 6000 nM
SMILES = CC(C)CC(C(=O)N1CC2(CC1C#N)C(=O)Nc1ccccc12)N(C)C(=O)c1cc2c(F)cc(F)c(F)c2[nH]1 (centres unmarked); tested on = Caspase-9 (CASP9, Homo sapiens, UniProt P55211); assay = enzyme activity, inhibitor; endpoint = IC50; result = 4700 nM and 4680 nM
SMILES = O=C1NC2(CC2)COc2ncc(F)cc2[C@H]2COCCN2c2ccn3ncc1c3n2; test system = Sprague-Dawley rat, female, heart; conditions = oral, 5 mg/kg/day, 4 weeks dosing, end of recovery; endpoint = organ-to-body weight ratio; result = 0.365 ± 0.031%
SMILES = CSCC[C@H](NC(=O)[C@H](CCC(N)=O)NC(=O)[C@H](CCCCN)NC(=O)[C@H](CCCNC(=N)N)NC(=O)[C@H](Cc1ccc(O)cc1)NC(=O)[C@H](CCCNC(=N)N)NC(=O)[C@H](CO)NC(=O)[C@H](Cc1ccc(O)cc1)NC(=O)[C@H](CO)NC(=O)[C@H](CC(=O)O)NC(=O)[C@@H](NC(=O)[C@@H](N)Cc1ccccc1)[C@@H](C)O)C(=O)N[C@@H](C)C(=O)N[C@H](C(=O)N[C@@H](CCCCN)C(=O)N[C@@H](CCCCn1cc(C[C@H](NC(=O)CNC(=O)[C@H](CO)NC(=O)[C@H](CCCNC(=N)N)NC(=O)[C@H](CO)NC(=O)[C@H](CC(C)C)NC(=O)[C@H](CC(C)C)NC(=O)CNC(=O)[C@H](C)NC(=O)[C@H](CC(C)C)NC(=O)[C@H](CCCNC(=N)N)NC(=O)[C@H](Cc2c[nH]cn2)NC(=O)[C@@H](NC(=O)[C@@H](N)C(C)C)[C@@H](C)O)C(=O)N[C@H](C(=O)N[C@H](C(=O)N[C@@H](CCCCN)C(=O)N[C@@H](CC(N)=O)C(=O)N[C@@H](CC(N)=O)C(=O)N[C@@H](Cc2ccccc2)C(=O)N[C@H](C(=O)N2CCC[C@H]2C(=O)N[C@H](C(=O)N[C@@H](CC(N)=O)C(=O)N[C@H](C(=O)NCC(=O)N[C@@H](CO)C(=O)N[C@@H](CCCCN)C(=O)N[C@@H](C)C(=O)N[C@@H](Cc2ccccc2)C(N)=O)C(C)C)[C@@H](C)O)C(C)C)C(C)C)C(C)C)nn1)C(=O)N[C@@H](Cc1ccc(O)cc1)C(=O)N[C@@H](CC(C)C)C(=O)N[C@@H](C)C(=O)N[C@@H](C)C(=O)N[C@H](C(=O)N[C@@H](CC(C)C)C(=O)NCC(=O)N[C@@H](CCCCN)C(=O)N[C@@H](CCCNC(=N)N)C(=O)N[C@@H](Cc1ccc(O)cc1)C(=O)N[C@@H](CCCCN)C(=O)N[C@@H](CCC(N)=O)C(=O)N[C@@H](CCCNC(=N)N)C(=O)N[C@H](C(=O)N[C@@H](CCCCN)C(=O)N[C@@H](CC(N)=O)C(=O)N[C@@H](CCCCN)C(N)=O)C(C)C)C(C)C)C(C)C; tested on = VIPR2; assay = cAMP accumulation, antagonist; conditions = with: PACAP-27; endpoint = Kb; result = 155 nM
SMILES = CC[C@H](C)[C@H](NC(=O)[C@H](CO)NC(=O)[C@H](CC(N)=O)NC(=O)[C@H](CC(C)C)NC(=O)[C@H](Cc1ccc(O)cc1)NC(=O)[C@H](CCCCN)NC(=O)[C@H](CCCCN)NC(=O)[C@@H](NC(=O)[C@H](C)NC(=O)[C@H](CCSC)NC(=O)[C@H](CCC(N)=O)NC(=O)[C@H](CCCCN)NC(=O)[C@H](CCCN=C(N)N)NC(=O)[C@H](CC(C)C)NC(=O)[C@H](CCCN=C(N)N)NC(=O)[C@@H](NC(=O)[C@H](Cc1ccc(O)cc1)NC(=O)[C@H](CC(N)=O)NC(=O)[C@H](CC(=O)O)NC(=O)[C@@H](NC(=O)[C@H](Cc1ccccc1)NC(=O)[C@@H](NC(=O)[C@H](C)NC(=O)[C@H](CC(=O)O)NC(=O)[C@H](CO)NC(=O)[C@@H](N)Cc1c[nH]cn1)C(C)C)[C@@H](C)O)[C@@H](C)O)C(C)C)C(=O)N[C@@H](CC(C)C)C(=O)N[C@@H](CC(N)=O)C(N)=O; tested on = ADCYAP1R1 (Homo sapiens, UniProt P41586, del89-109); assay = β-arrestin recruitment, agonist, BRET; endpoint = EC50; result = 316 nM
SMILES = CCC[C@H](C(=O)c1ccccc1)N1CCCC1; tested on = SLC6A4 (Homo sapiens, UniProt P31645); assay = transporter uptake, inhibitor, radiometric; endpoint = Ki; result = 653000 nM
SMILES = Cc1cc(O)cc(C)c1CCC(=O)N[C@@H]1C/C=C\CC[C@@H](C(N)=O)NC(=O)[C@H](Cc2ccccc2)NC(=O)[C@H](Cc2ccccc2)NC1=O; tested on = Oprd1 (Rattus norvegicus, UniProt P33533); assay = ligand displacement, radioligand; conditions = cell membranes; endpoint = Ki; result = 86.3 nM
